Measured values gathered from unrelated publications.
Every numbered part comes from another study and shows a few of its results, in no order. “And” joins repeats or separate records; there may be more than shown.
UniProt P35367, sequence (whole entry, looked up): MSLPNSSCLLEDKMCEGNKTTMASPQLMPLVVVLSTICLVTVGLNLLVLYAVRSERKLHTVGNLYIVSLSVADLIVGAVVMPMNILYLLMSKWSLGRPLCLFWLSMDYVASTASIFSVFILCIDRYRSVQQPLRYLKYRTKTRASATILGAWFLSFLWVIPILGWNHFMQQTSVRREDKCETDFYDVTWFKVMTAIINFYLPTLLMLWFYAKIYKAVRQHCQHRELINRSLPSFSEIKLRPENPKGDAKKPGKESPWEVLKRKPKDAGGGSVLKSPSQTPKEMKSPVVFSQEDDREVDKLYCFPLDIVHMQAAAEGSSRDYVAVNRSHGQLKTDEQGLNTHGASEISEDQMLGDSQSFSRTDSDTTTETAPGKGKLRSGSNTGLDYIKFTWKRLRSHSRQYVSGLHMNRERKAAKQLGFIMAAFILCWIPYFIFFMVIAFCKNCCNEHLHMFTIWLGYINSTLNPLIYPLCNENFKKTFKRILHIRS
UniProt P47898, sequence (whole entry, looked up): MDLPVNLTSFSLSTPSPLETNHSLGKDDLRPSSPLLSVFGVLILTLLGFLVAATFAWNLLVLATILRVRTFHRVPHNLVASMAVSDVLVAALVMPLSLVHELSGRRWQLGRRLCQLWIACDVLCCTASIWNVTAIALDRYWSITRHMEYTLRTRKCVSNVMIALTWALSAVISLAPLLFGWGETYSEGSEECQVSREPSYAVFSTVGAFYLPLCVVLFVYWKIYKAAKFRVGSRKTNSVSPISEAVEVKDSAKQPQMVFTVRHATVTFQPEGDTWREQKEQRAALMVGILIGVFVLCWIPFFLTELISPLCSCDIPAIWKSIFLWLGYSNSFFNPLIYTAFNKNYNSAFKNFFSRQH
UniProt P35368, sequence (whole entry, looked up): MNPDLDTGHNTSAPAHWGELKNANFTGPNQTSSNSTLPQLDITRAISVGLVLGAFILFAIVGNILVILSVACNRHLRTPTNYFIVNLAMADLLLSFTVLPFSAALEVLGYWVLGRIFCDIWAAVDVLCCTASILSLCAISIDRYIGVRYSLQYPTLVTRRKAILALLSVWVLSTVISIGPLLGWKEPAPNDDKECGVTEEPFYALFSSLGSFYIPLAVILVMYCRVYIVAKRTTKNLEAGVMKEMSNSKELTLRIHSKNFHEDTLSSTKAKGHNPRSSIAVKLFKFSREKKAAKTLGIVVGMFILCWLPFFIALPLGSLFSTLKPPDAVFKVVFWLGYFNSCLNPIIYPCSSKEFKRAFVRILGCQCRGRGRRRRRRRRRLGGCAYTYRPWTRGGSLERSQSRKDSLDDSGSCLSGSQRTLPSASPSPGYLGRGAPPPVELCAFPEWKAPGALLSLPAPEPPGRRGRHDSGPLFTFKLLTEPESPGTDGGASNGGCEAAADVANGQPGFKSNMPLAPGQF
UniProt P13945, sequence (whole entry, looked up): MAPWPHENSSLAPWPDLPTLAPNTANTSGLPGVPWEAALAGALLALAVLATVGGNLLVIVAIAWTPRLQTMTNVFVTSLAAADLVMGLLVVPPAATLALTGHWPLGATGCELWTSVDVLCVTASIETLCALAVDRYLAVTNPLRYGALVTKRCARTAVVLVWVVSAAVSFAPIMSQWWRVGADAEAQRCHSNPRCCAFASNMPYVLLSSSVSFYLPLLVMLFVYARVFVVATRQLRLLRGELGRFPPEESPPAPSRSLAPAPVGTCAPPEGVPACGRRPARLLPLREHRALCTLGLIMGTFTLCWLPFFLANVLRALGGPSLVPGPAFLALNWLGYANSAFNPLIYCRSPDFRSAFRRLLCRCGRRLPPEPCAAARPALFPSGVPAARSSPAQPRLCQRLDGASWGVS
UniProt P08172, sequence (whole entry, looked up): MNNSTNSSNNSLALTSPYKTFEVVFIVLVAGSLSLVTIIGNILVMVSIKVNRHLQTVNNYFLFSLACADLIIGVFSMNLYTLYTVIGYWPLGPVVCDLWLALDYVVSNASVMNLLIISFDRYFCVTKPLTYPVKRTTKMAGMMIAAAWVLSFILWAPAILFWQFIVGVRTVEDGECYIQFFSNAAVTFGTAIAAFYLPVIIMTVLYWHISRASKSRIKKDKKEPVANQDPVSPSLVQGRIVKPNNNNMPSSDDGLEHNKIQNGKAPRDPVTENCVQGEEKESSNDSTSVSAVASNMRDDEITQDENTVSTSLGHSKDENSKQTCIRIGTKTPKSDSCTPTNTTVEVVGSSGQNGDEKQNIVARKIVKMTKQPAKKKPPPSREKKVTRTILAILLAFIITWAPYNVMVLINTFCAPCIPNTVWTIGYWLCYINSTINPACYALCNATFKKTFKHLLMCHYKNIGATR
UniProt P21728, sequence (whole entry, looked up): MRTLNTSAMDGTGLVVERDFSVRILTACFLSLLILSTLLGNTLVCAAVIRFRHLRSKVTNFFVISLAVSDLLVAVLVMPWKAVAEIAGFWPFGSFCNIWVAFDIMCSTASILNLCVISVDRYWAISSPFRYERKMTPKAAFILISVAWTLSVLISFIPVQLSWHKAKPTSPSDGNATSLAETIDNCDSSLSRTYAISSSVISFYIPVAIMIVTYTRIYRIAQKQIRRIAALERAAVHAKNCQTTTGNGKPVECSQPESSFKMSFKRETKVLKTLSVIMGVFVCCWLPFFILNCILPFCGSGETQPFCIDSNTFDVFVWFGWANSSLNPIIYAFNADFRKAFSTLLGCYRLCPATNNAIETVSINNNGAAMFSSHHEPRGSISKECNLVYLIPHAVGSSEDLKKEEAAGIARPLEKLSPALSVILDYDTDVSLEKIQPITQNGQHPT
UniProt P18089, sequence (whole entry, looked up): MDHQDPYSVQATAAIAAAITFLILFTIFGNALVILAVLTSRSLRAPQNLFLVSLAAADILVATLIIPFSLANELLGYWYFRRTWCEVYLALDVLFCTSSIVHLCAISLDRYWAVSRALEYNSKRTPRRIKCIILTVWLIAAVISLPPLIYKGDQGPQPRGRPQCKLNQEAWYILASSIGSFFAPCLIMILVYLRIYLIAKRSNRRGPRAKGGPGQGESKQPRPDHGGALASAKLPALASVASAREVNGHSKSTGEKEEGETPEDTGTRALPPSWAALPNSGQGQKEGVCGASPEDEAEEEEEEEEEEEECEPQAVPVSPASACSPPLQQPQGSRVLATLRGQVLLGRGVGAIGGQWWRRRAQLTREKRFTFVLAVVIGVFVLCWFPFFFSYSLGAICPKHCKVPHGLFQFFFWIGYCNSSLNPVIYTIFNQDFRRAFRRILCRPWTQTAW
UniProt P08173, sequence (whole entry, looked up): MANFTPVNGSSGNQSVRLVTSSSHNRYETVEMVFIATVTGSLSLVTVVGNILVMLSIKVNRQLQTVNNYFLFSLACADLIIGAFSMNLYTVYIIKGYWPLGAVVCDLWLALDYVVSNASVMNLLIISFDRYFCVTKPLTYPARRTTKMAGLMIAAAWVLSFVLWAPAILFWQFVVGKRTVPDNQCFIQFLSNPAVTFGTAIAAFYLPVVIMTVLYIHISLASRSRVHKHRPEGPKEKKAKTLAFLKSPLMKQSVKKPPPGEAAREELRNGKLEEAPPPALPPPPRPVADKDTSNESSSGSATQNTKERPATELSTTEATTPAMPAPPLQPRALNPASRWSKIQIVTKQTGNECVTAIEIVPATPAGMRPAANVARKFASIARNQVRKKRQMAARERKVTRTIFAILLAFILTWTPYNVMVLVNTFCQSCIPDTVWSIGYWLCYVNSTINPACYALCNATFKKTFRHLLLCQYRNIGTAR
UniProt P46098, sequence (whole entry, looked up): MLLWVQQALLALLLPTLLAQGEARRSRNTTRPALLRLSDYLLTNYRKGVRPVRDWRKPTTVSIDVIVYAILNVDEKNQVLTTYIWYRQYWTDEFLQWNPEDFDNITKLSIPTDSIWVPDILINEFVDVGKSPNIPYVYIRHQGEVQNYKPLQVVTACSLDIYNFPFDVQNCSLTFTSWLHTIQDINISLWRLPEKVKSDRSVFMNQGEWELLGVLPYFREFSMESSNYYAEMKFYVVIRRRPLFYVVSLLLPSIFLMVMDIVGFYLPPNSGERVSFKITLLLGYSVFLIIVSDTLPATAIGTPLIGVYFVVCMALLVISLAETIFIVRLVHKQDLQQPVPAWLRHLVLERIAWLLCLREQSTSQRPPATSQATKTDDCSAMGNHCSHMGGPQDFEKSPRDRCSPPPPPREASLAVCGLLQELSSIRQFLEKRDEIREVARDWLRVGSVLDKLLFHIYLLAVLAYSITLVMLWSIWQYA
UniProt P18825, sequence (whole entry, looked up): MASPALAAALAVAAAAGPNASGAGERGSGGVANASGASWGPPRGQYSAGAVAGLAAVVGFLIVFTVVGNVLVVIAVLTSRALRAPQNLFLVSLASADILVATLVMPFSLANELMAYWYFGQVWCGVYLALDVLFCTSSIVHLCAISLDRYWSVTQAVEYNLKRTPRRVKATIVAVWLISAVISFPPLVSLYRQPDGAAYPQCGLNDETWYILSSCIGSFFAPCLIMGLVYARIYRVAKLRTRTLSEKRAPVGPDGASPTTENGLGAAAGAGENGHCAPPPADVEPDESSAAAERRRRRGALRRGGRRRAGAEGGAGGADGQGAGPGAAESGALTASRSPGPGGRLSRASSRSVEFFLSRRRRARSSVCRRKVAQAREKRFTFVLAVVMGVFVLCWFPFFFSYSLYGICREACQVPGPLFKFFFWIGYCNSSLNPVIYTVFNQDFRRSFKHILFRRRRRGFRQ
UniProt Q9H3N8, sequence (whole entry, looked up): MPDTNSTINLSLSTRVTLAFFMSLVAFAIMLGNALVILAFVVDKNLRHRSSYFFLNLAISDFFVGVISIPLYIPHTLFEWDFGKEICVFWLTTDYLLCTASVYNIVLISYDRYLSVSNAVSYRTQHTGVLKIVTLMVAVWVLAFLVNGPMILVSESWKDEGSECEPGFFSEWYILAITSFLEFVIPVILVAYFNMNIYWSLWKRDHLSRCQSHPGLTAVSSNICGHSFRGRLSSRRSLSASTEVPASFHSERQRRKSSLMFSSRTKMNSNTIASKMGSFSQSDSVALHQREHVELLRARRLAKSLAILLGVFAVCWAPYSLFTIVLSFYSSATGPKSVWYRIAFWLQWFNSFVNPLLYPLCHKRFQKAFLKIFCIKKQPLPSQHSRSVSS

Block 1 — organism: Sarcocystis neurona; effect on: parasite growth; tested at: concentration not given; notes: first screen; relative to: untreated
| SMILES | log2 fold change |
| --- | --- |
| CC[C@@H]1C(=O)OC[C@@H]1Cc1cncn1C.Cl | 0.18 |
| CCN(CC)C(=O)C1(c2ccccc2)CC1CN.Cl (stereo not shown) | -0.18 |
| CS(=O)(=O)O.O=C(O[C@H]1C[C@H]2CC3C[C@@H](C1)N2CC3=O)c1c[nH]c2ccccc12 | 0.0744 |

Block 2
Structure (SMILES): CC(C)n1cnc(-c2ccc(F)cc2)c1-c1ncc(C(=O)Nc2ccc(N3CCN(C)CC3)cc2)[nH]1
| technique | item | species | route | dose | notes | patients with TEAE [%] |
| --- | --- | --- | --- | --- | --- | --- |
| phase 2a trial |  | idiopathic pulmonary fibrosis patients | oral | 60 mg once daily | musculoskeletal disorders, grade 5 | 0 |
| phase 2a trial |  | idiopathic pulmonary fibrosis patients | oral | 60 mg once daily | urine red cells, grade 2 | 0 |
|  | liver function test abnormal | idiopathic pulmonary fibrosis patients |  | 30 mg once daily |  | 0 |
| phase 2a trial |  | patients with idiopathic pulmonary fibrosis |  | 30 mg once daily | eye swelling, grade 5 | 0 |

Block 3 — effect on: binding; technique: radioligand binding; tested at: 10 µM
SMILES: CCCCN(CCCC)C(=O)CN1C[C@H](c2cc(OC)c3c(c2)OCO3)[C@@H](C(=O)O)[C@@H]1CC(C)(C)CCC
| target | inhibition [%] |
| --- | --- |
| Histamine H4 receptor (HRH4, Homo sapiens, UniProt Q9H3N8) | -0.606 |
| Alpha-1D adrenergic receptor (ADRA1D, Homo sapiens, UniProt P25100) | -11.7 |
| Histamine H1 receptor (HRH1, Homo sapiens, UniProt P35367) | 53.6 |
| Alpha-2C adrenergic receptor (ADRA2C, Homo sapiens, UniProt P18825) | -18.4 |
| 5-hydroxytryptamine receptor 5A (HTR5A, Homo sapiens, UniProt P47898) | -5.07 |
| 5-hydroxytryptamine receptor 7 (HTR7, Homo sapiens, UniProt P34969) | -2.24 |
| Histamine H2 receptor (HRH2, Homo sapiens, UniProt P25021) | 24.3 |
| Muscarinic acetylcholine receptor M4 (CHRM4, Homo sapiens, UniProt P08173) | 8.5 |
| Alpha-2B adrenergic receptor (ADRA2B, Homo sapiens, UniProt P18089) | 9.73 |
| Alpha-1B adrenergic receptor (ADRA1B, Homo sapiens, UniProt P35368) | -7.9 |
| Beta-3 adrenergic receptor (ADRB3, Homo sapiens, UniProt P13945) | 2.71 |
| D(1A) dopamine receptor (DRD1, Homo sapiens, UniProt P21728) | 4.66 |
| 5-hydroxytryptamine receptor 3A (HTR3A, Homo sapiens, UniProt P46098) | 14.7 |
| Muscarinic acetylcholine receptor M2 (CHRM2, Homo sapiens, UniProt P08172) | -1.89 |

Block 4 — organism: Cryptosporidium parvum; technique: time-kill; cell line: HCT-8; strain: nanoluciferase-expressing; relative to: DMSO control
Structure (SMILES): CN(C(=O)c1ccn2ncc(-c3ccc(C(N)=O)cc3)c2c1)c1ccc(C#N)cn1
| tested at | time | luminescence remaining |
| --- | --- | --- |
| 6.667 µM | 72 h | 15.4% and 11.8% |
| 0.00914 µM | 24 h | 92.1% and 114% |
| 2.222 µM | 72 h | 10.4% and 11% |

Block 5 — species: human; sample: microsomes or S9; tested at: 2 µM; time: 0.5 h
| Structure (SMILES) | remaining compound [%] |
| --- | --- |
| Cc1cnc(C2CC2)n1CCNC(=O)c1ccccn1 | > 100 |
| O=c1ccc(-c2ccc(S(=O)(=O)NCc3cccc(Br)c3)s2)n[nH]1 | 14.7 |
| COC(=O)[C@@H](O)c1c(C)nc2[nH]c3c(c2c1-c1ccc(Cl)cc1)CCCC3 | 55 |

Further values, each from its own experiment
| Compound | cell line | tested at | notes | endpoint | value |
| --- | --- | --- | --- | --- | --- |
| O=C1CCC(N2Cc3cc(C4CCN(Cc5ccccc5)CC4)ccc3C2=O)C(=O)N1 (stereo not shown) | human Treg:Teff co-culture | concentration not given | Treg suppression | proliferating CD8+ Teff cells | 66.2% and 87.5% and 54.1% and 86.8% and 39.5% and 47.2% |

For quick reference, copied from above (block 2):
| technique | item | species | route | dose | notes | patients with TEAE [%] |
| --- | --- | --- | --- | --- | --- | --- |
| phase 2a trial |  | idiopathic pulmonary fibrosis patients | oral | 60 mg once daily | musculoskeletal disorders, grade 5 | 0 |
| phase 2a trial |  | idiopathic pulmonary fibrosis patients | oral | 60 mg once daily | urine red cells, grade 2 | 0 |
|  | liver function test abnormal | idiopathic pulmonary fibrosis patients |  | 30 mg once daily |  | 0 |
| phase 2a trial |  | patients with idiopathic pulmonary fibrosis |  | 30 mg once daily | eye swelling, grade 5 | 0 |
